Published values from different studies.
“And” joins repeats or separate records; there may be more than shown. ± gives the spread as reported.
Target: Cytochrome P450 3A4 (CYP3A4, Homo sapiens, UniProt P08684)
UniProt P08684, sequence (whole entry, looked up): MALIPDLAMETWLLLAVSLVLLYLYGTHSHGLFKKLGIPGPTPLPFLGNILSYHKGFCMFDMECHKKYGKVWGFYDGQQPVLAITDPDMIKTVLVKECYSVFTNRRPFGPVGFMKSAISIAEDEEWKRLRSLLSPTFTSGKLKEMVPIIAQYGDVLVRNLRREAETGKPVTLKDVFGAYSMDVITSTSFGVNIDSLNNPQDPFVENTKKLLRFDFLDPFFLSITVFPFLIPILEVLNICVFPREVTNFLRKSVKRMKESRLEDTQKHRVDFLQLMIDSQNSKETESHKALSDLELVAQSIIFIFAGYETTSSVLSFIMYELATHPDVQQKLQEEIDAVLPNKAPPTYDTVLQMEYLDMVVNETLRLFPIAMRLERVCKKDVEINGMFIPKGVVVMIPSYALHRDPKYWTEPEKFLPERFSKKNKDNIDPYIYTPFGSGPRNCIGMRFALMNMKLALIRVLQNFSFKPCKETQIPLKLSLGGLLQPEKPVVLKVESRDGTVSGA

O=C1Cc2cc(CCN3CCN(C4=NS(=O)(=O)c5ccccc54)CC3)c(Cl)cc2N1
inhibition (human liver microsomes; 2 µM, pH 7.4, with: midazolam): < 0%

O=C(NC(CSC(Cc1ccccc1)C(=O)NCCCc1cccnc1)Cc1ccc(-c2ccccc2)cc1)c1cccnc1 (centres unmarked)
IC50 (enzyme activity, inhibitor): 0.62 µM

CC(c1ccc(Cl)cc1F)N1CCCC(n2c(=O)[nH]c3cc(Cl)c(Cl)cc32)CC1 (centres unmarked)
inhibition (10 µM, 10 (unit not given)): < 10%

COc1ccc(F)cc1S(=O)(=O)Nc1cnc2c(c1)C(=O)NCCO2
IC50 (inhibitor; human liver microsomes; with: midazolam): > 100 µM

CC(=O)OC1(C(C)=O)CCC2C3C=C(CO)C4=CC(=O)CCC4(C)C3CCC21C (centres unmarked)
formation rate (substrate; recombinant enzyme; 28 µM, 25 min): 4.5 ± 0.3 pmol/min/pmol P450

C=C(C)[C@@H]1CCC(CO)=C[C@H]1c1c(O)cc(CCCCC)cc1O
half-life (human; 750 mg single dose): 19.4 h

COc1ccc2cc(NC(=O)c3cc(-c4ccccn4)nc4ccccc34)ccc2c1
Km (substrate, LC-MS, item: hydroxylated metabolite M1; baculosomes): 2.5 µM

Cc1ccc2nc(C)c(C(=O)NCc3ccc(C(F)(F)F)cc3)n2c1
IC50 (inhibitor): 13 µM and 12.5 µM

CNC(=O)Oc1cc(C)c(S(C)(=O)=O)c(C)c1
inhibition (human liver microsomes; 10 µM, pH 7.4, with: midazolam): < 0%

Nc1nc(Nc2ccc(Cl)cc2)nn1S(=O)(=O)c1ccc2ccccc2c1
IC50 (20 (unit not given), pH 7.4): > 50 µM

CC(C)(O)c1ccccc1CC[C@H](c1cccc(/C=C/c2ccc3ccc(Cl)cc3n2)c1)[S+]([O-])CC1(CC(=O)O)CC1 (some centres unmarked)
metabolised (human liver fractions; 1 µM, 30 min, pH 7.4): 0%

CC[C@@H]1CN2CCc3c([nH]c4cccc(OC)c34)[C@@H]2C[C@@H]1/C(=C\OC)C(=O)OC
remaining compound (recombinant enzyme metabolism; 2 µM, 60 min): 2%

C[N+]1(CC(=O)OC2CCCCCCCCCCC2)CCCCC1
IC50 (enzyme activity, inhibitor; with: midazolam): 3.28 µM

CNC(=O)Oc1cc(C)c([S+](C)[O-])c(C)c1 (centres unmarked)
inhibition (inhibitor; 2 µM, pH 7.4): 5.73%

O=C(NC(CSC(Cc1ccccc1)C(=O)NCCCc1cccnc1)Cc1c[nH]c2ccccc12)c1cccnc1 (centres unmarked)
Kd (binding, absorbance; pH 7.4): 0.032 µM and 0.032 to 0.037 µM

CCn1ccc(-c2cc(-c3cnn(C)c3)cc([C@@H](C)NC(=O)c3cc(OCCN(C)C)ccc3C)c2)n1
IC50 (enzyme activity, inhibitor; pooled human liver microsomes; 10 (unit not given)): > 50 µM

CCC1CC2C(C)=CC3C(=O)CCCC3C=CC(C)=CC2C(=O)O1 (centres unmarked)
remaining activity (human liver microsomes; 10 µM, 10 min, pH 7.4, with: midazolam 0.1 µM; baseline: untreated): 113%

Some of these lines once more:
C=C(C)[C@@H]1CCC(CO)=C[C@H]1c1c(O)cc(CCCCC)cc1O
half-life (human; 750 mg single dose): 19.4 h
